Published values from different studies.
Numbered parts are unrelated; each lists some results of a single study. Substitutions count along the parent as printed.

Set 1
Target: CCNB2, cyclin fold, Cln2 fusion (human)
Technique: yeast growth competition, sequencing
Medium: yeast
Setting: weak parent motif
Reference: not given
Reading: higher = stronger binding
Quantity: normalised enrichment score
Starting sequence: SCAPER docking peptide (human); SNARRSLNFGGST
Change = SNARRSLNFDGST [G10D]; result = -0.0173
Change = KNARRSLNFGGST [S1K]; result = 0.1
Change = SNARRSLNFGGSL [T13L]; result = 0.201
Change = SNARRSLNFGDST [G11D]; result = 0.0537
Change = SNARLSLNFGGST [R5L]; result = 0.0765
Change = SNARRSLNFGGSR [T13R]; result = 0.546
Change = SNAIRSLNFGGST [R4I]; result = -0.0556
Change = SNARRSLNFGGDT [S12D]; result = 0.301
Change = SDARRSLNFGGST [N2D]; result = -0.129
Change = SNPRRSLNFGGST [A3P]; result = 0.135
Change = VNARRSLNFGGST [S1V]; result = 0.423
Change = SNARWSLNFGGST [R5W]; result = -0.235
Change = SNSRRSLNFGGST [A3S]; result = -0.219
Change = SEARRSLNFGGST [N2E]; result = -0.225
Change = SNARRSLNGGGST [F9G]; result = -0.0897
Change = SNARRGLNFGGST [S6G]; result = 0.567
Change = SNERRSLNFGGST [A3E]; result = 0.484
Change = SNARRSLHFGGST [N8H]; result = 0.302
Change = HNARRSLNFGGST [S1H]; result = -0.205
Change = SNARRSCNFGGST [L7C]; result = 0.354
Change = SNARRSLNFGGNT [S12N]; result = 0.963
Change = SNARRSLNFMGST [G10M]; result = -0.0111
Change = SNARRSLNFGGSN [T13N]; result = 0.24
Change = SNARRSLNFGGSV [T13V]; result = -0.00531

Set 2
Target: Fragile X messenger ribonucleoprotein 1, C-terminal low-complexity region (Fmr1, Mus musculus, UniProt P35922)
Technique: RNA Bind-n-Seq
Form: RNA
Medium: in vitro
Tested at: 200 nM
Setting: whole 134-nt RNA, ends assumed
Together with: 150 mM LiCl
Reference: input library
Reading: higher = stronger binding
Quantity: log2 enrichment
All molecules: 7-deaza-guanosine replaces G
Constant ends, left off below: GGGAGUUCUACAGUCCGACGAUC … UGGAAUUCUCGGGUGUCAAGG
Sequence = AAGUCCUGUGCUACACAUCGUAUGUACCGAAUCGGGGCCCCGGCCCCGGGCCCCGGAAAGUAUUAUGUUACGCCGUUCGGAUCUGCACUU; result = -3.04
Sequence = GUCCUGUGCUACACAUCGUAUGUACCGAAUCGGGGAAAAGGGGAAAAGGGGAAAAGGGGAAAGUAUUAUGUUACGCCGUUCGGAUCUGCA; result = 0.93
Sequence = CCUGUGCUACACAUCGUAUGUACCGAAUCGGGGUUUUUUUGGGGUGGGGAAAAAAAGGGGAAAGUAUUAUGUUACGCCGUUCGGAUCUGC; result = -1.3
Sequence = AAAUAUCAGUGAUCAUCGCAAGGAAGGAGGCAGACAAGAGUAAGGCACACCUGACUCUUAGGACUAGCAGUCAGAACCAGGAGGAAAGGU; result = -0.868
Sequence = UAACUUUAUAGGAGGAUCUGAUGGAUAUGGCAGUGGACGUGGAUUUGGGGAUGGCUAUAAUGGGUAUGGAGGAGGACCUGGAGGUGGCAA; result = -0.446
Sequence = CCUGUGCUACACAUCGUAUGUACCGAAUCGGGCCCCCCCGGCCCCCCCGGCCCCCCCGGGGAAAGUAUUAUGUUACGCCGUUCGGAUCUG; result = 0.679
Sequence = GCAGGAAGUAAAAACAAAUGGAAAUGCUUCGGAUAGUGGCAGGGGUGGGGGUUGCUAAGGAAAGGGUGGGAUGGGAGAGGGUAAAGAGUU; result = 1.75
Sequence = UCCUCAAGUCCUGUGCUACACAUCGUAUGUACCGAAUCGGUGGAGGUUUGGAAAGUAUUAUGUUACGCCGUUCGGAUCUGCACUUCCAGC; result = -1.5

Set 3
Target: Interferon regulatory factor 7, full length, phosphomimetic (IRF7, Homo sapiens, UniProt Q92985, residues 1-503, S471D/S472D/S475D/S476D/S477D/S483D/S484D/S487D)
Technique: protein-binding microarray
Form: double-stranded DNA, one strand shown
Medium: in vitro
Tested at: 2200 nM top
Setting: 60-bp whole probe
Together with: salmon DNA 0.4 mg/ml
Reference: random background probes
Reading: higher = stronger binding
Quantity: fitted relative affinity
Constant ends, left off below: GCCTAGCAC … GTCTTGATTCGCTTGACGCTGCTG
Residues (chain): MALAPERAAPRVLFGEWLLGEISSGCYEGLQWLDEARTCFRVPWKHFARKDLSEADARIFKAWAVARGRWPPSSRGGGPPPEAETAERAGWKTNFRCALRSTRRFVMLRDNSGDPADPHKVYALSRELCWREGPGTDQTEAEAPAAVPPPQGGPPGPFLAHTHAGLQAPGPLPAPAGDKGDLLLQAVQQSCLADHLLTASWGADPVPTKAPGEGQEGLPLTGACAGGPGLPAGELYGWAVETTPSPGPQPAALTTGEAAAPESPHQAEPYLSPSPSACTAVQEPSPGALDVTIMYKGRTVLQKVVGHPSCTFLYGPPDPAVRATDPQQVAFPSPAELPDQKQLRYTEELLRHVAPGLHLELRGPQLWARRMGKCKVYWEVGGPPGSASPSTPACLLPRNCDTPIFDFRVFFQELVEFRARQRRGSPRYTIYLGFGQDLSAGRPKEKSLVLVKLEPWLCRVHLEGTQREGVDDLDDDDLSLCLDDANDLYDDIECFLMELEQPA
Sequence = GACGATTTCGGGTGTCGAGACGTGCTA; result = 2.22 z-score
Sequence = ATTTTTTTCATTATTGTTTCGTGCTAG; result = 2.73 z-score
Sequence = TTAGATACCAGTTTCGATTAGTGCTAG; result = 5.78 z-score
Sequence = TCAATCCTTCATTTGAAACTGTGCTAG; result = 0.855 z-score
Sequence = TTGGATATCAGTATCGATTAGTGCTAG; result = 0.496 z-score
Sequence = TTAGCTATCGGTCTCGGTTAGTGCTAG; result = 0.827 z-score
Sequence = TTAGGACTGGGGACTGGGCTAGTGCTA; result = -1.25 z-score
Sequence = TATTACCTCATCTTCCTCTGCGTGCTA; result = 1.73 z-score
Sequence = GACGTTATCCTACTGCTGACGTGCTAG; result = 1.18 z-score
Sequence = TTAGGTCTCGGTCTCGGTTGGTGCTAG; result = 0.813 z-score
Sequence = TACGGTCTCGGACTGGGGACGTGCTAG; result = -0.378 z-score
Sequence = TGGGACCAGCACAGACAGTCGTGCTAG; result = -1.11 z-score
Sequence = TTAGGTATCAGGTATCGGTTAGTGCTA; result = 0.453 z-score
Sequence = TTAGATATCGGGACTGGATTCGTGCTA; result = -0.0845 z-score
Sequence = TCAAGAATCCCCTTCTAACTGTGCTAG; result = 0.272 z-score
Sequence = TTAGGACTGGACTTTCGATTAGTGCTA; result = 3.7 z-score
Sequence = TTAGGACTGCGTATCCTTTAGTGCTAG; result = 0.0481 z-score
Sequence = GACGGTTTCCGTATCCTGACGTGCTAG; result = 3.69 z-score
Sequence = TTAGGTCTCATTTTCCTTTAGTGCTAG; result = 2.61 z-score

Set 4
Target: RNA binding protein fox-1 homolog 2, RRM domain, GST-SBP tag (RBFOX2, Homo sapiens, UniProt O43251-10, residues 100-194)
Technique: RNA Bind-n-Seq
Form: RNA
Medium: in vitro
Tested at: 365 nM
Setting: natural RNA segment, single round, ends assumed
Reference: no-protein control
Reading: higher = stronger binding
Quantity: RBNS enrichment (R)
Constant ends, left off below: GGGAGUUCUACAGUCCGACGAUC … UGGAAUUCUCGGGUGCCAA
Residues (chain): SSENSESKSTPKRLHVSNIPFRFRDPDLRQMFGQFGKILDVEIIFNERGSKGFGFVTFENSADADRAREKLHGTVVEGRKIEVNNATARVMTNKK
Sequence = GCCAUUAGAAUAUCUUGCCUGAUAAGAGUGUUUUUGUUUACCUGUGGGCCUUGGGCCAUGCAGUAUCAGCUUGACCUUGCAAGGUCAAGCUGAGGAGACUAAGUUAGCCA; result = 0.689
Sequence = UCCUAUAUACCUUCUGUAAAUAACUUUUUUUGAGAAGGAAAUAAAAUCAGCUGGAACUGAACCCUAAUCUUGACUUUUGUCAUCCUUAUUCCUGGGAUCUCUCCUUUCAC; result = 0.311
Sequence = CCAGUUCUUUGUUUACUUUUCAGGUUUGUACUACAAGGUUUAAUAAUAAAAAGUUUUUUGGACAUUUUGUCUGUCUUGUGGGAAGGGAUUGGGCUUUCUUUGGUCAGUGG; result = 0.661
Sequence = ACUUCCAAGAAACAGUUCUGGCCCAAACCAGACUAUCCCUUCCCCAACAGUUCUCACUGCCUGGCCUUUGGAAGGUCACUUAACAUUUGUUGUUGUUUUGUUUUGUUUUU; result = 0.377
Sequence = CGAGGAGGGGCGGGGGCAGGGGCUGCAGCCCCCAGCGCUGCCUUUGCGGAUUCUGUUUUUGAGCCGUGGACUUGGGUUGUAAAUUUAUUUGUGGGGAGUGCGCUCCAGGA; result = 2.35
Sequence = CUAUCAUGUGCAUAGGCAGAAGCUGCUGGUAGAGGGAGUGGUGGCUUUCUAGUGCCCAUCUUGGCUCUCCAGCUGCAAGUUGCACAGCCAUAACCUAAGACUUUAAAAUA; result = 0.229
Sequence = UAGCAGGAGGUCCUCUACUGGUGAUACCCUCACCUUGGGGUAAUGGUCCUAACCCAGACCCAGGGUCUGGAAGCUUAAUGUUGAGUUGGUGACUCCAGCCUCUUUCUCCU; result = 0.357
Sequence = UUGUCCAAAGUUUAUUUAUUUAUUUAUUACCCUAAGAAUGCUUUGCCAUAACCACAUUUAAUGGGAAAAACGGCAGUAUCACAGAUGUAAAUUAACUCACCAGAUUUACU; result = 0.579

A few entries again (set 1):
Change = SNSRRSLNFGGST [A3S]; result = -0.219
Change = SEARRSLNFGGST [N2E]; result = -0.225
Change = SNARRSLNGGGST [F9G]; result = -0.0897
Change = SNARRGLNFGGST [S6G]; result = 0.567
Change = SNERRSLNFGGST [A3E]; result = 0.484
Change = SNARRSLHFGGST [N8H]; result = 0.302
Change = HNARRSLNFGGST [S1H]; result = -0.205
